Published values collected from several papers.
A part holds a random share of what one study measured.

Series 1
Target: Interferon regulatory factor 5, full length, phosphomimetic (IRF5, Homo sapiens, UniProt Q13568-2, residues 1-514, K96S/S451D/S453D/S456D/S462D)
Technique: protein-binding microarray
Form: double-stranded DNA, one strand shown
Matrix: in vitro
Tested at: 250 nM
Setting: 60-bp whole probe
With: salmon DNA 0.4 mg/ml
Relative to: random background probes
Direction: higher = stronger binding
All sequences stand within: GCCTAGCAC … GTCTTGATTCGCTTGACGCTGCTG
The log fluorescence of `GACGAACTGAGTATCGAGGCGTGCTAG` is reported as 1.09 z-score.
The log fluorescence of `TTAGGTTTCGAGACTGGGTTAGTGCTA` is reported as 4.75 z-score.
For `TTAGATTTCAGTTTCGCTTAGTGCTAG`, the log fluorescence was 8.94 z-score.
With `TTAGATTTCCGGACTGGATTAGTGCTA` the log fluorescence was 0.155 z-score.
With `TCAGATTTCAGTTTCTCACTGTGCTAG` the log fluorescence was 2.45 z-score.
For `GACGGTTTCGATACTGGGGACGTGCTA`, the log fluorescence was 8.65 z-score.
The log fluorescence of `TCACATTTTCTCTTATTACTGTGCTAG` is reported as 2.08 z-score.
`CTAGGTTTCCTTATCCTTTAGTGCTAG` gave a log fluorescence of 0.67 z-score.
With `GACGGTTTCGGGTTCCGGGACGTGCTA` the log fluorescence was 7.59 z-score.
`TCAAGGTTGTTTCTAATACTGTGCTAG` gave a log fluorescence of 0.874 z-score.
With `TTAGGTATCGGTTGCGGTTAGTGCTAG` the log fluorescence was 8.06 z-score.

Series 2
Target: RING finger protein unkempt homolog, zinc fingers 1-6, GST-SBP tag (UNK, Homo sapiens, UniProt Q9C0B0, residues 30-357)
Technique: RNA Bind-n-Seq
Form: RNA
Matrix: in vitro
Tested at: not given
Setting: RNA with constant flanks, human and mouse sites, ends assumed
Relative to: input RNA pool
Direction: higher = stronger binding
Target sequence (chain): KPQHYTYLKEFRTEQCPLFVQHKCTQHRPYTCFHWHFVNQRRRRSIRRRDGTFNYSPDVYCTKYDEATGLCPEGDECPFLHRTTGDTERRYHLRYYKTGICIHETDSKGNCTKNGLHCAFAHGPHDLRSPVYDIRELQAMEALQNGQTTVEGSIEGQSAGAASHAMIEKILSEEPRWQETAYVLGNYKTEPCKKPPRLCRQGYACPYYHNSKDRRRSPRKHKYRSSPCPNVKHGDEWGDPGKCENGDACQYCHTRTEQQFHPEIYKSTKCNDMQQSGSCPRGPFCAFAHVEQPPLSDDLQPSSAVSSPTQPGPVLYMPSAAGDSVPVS
`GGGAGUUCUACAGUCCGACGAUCAACAUUGUAUCAUAGUUCAUUCAUUUGCAGUGGAUCUUUGUUCCUUUUUACUGUGGUAAUUUUAGAAAUGAGUGUCAAGUUUGAAAUUAGAUCUGCUAAGUUGGGGUUUUGCUGCUUGAACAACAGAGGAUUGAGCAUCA` has a bound/input enrichment of 1.03 ratio.
`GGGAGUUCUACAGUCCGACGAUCUCAGAAUAAUUUCAUCACUGGAGUCAGAGCGAUAAAUGAGUUCUGCCUCAAAUCCAGUGAUCUAGAACAACUUCGAAAAAUCAGACGACGAAGUCCCCAUGAAGAUACUGAGUCUUUUACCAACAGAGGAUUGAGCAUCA` has a bound/input enrichment of 0.0511 ratio.
The bound/input enrichment of `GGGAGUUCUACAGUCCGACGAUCGGUGGAAGCAUGCUUAAAGCUCUGCCUUUGAAGAGUAGUCUUACUCCAAGUUCUCAAGAUGACAGCAACCAGGAAGAUGAUGGCCAAGAUAGCUCUCCAAAGUGGCCAGAUUCUGGUUCACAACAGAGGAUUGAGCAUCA` is reported as 0.371 ratio.
For `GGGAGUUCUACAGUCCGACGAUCUGUGGCCUCUCUGAAGAAAAAGCCGUAGAGAAAUUUGGGGAAGAAAAUAUUGAAGUUUACCAUAGUUUCUUUUGGCCAUUGGAAUGGACAGUCCCAUCCCGGGAUAACAACAAAUGUUAUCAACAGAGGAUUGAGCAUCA`, the bound/input enrichment was 0.168 ratio.
The bound/input enrichment of `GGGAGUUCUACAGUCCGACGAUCUCCUCUUCUGCCAGUAGUUUCCUGAGCUCAAACUCUACUUUUUGCAACAAGCAGAAUGUACACAUGUUAAACAAGGGCAUACAAGCAGGUAACUUGGAGAUUGUGAACGGUGCCAAAAAACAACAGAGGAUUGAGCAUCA` is reported as 0.147 ratio.
With `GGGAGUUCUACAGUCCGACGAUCGAUAGAACUGUAUGGCCCUUGAUAAGAAUCUAUCGGGGUGGCUUUCUUCUGAUUGAAUUCCUUUUUCUACUGGGCAUCAACACAUAUGGUUGGAGACAAGCUGGAGUAAAUCAUGUCCUCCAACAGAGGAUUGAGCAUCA` the bound/input enrichment was 0.231 ratio.
With `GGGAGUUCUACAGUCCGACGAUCAGUGGCCUGGACUCACACUACCAAACAGAGCCGCACGUUCUGGCUGGCACCGCUAAUCCGACGGUUGCCAAAAGAAACAUGACUUUGCCUGGCGAGAACGGUCAAAACUUGGUGGAAUGGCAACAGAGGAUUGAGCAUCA` the bound/input enrichment was 0.102 ratio.
The bound/input enrichment of `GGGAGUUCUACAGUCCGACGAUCAUGGGCUUUCAUGUUAUCUAUAAGACACCUUGUGGUCUCUGCCUUCGGACAAUGCAGGAGAUAGAACGCUACCUUUUCGAGACUGGCUGUGACUUCCUCUUCCUGGAGAUGUUCUGUUUGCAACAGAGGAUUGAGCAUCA` is reported as 0.369 ratio.

Series 3
Target: Histone acetyltransferase KAT6A, winged helix 2, GST fusion (KAT6A, Homo sapiens, UniProt Q92794, residues 85-181)
Technique: protein binding microarray
Form: double-stranded DNA, one strand shown
Matrix: in vitro
Tested at: not given
Setting: 8-mer, flanks averaged, mean of 2 arrays, mostly near background
Relative to: not given
Direction: higher = stronger binding
Construct (chain): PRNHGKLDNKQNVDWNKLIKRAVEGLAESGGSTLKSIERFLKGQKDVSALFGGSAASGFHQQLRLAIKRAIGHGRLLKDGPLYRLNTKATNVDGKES
The E-score of `CGTGGGTA` is reported as -0.064.
The E-score of `CTCAAGAA` is reported as -0.138.
With `GCCACCAA` the E-score was -0.0188.
The E-score of `GATCGGTA` is reported as 0.0404.
For `CCGACACC`, the E-score was -0.213.
For `AACGCATT`, the E-score was 0.105.
`AAATGGGC` gave an E-score of -0.0449.
`AAGTGAAT` gave an E-score of 0.0662.
`AAGCTCCT` gave an E-score of -0.124.
For `AAACCTGT`, the E-score was -0.131.
For `ATGGACAA`, the E-score was 0.0365.
The E-score of `CGATTTTA` is reported as -0.0744.
For `GAGCCTGA`, the E-score was 0.0417.
The E-score of `GTACTTAA` is reported as -0.0931.
For `CAGAAATA`, the E-score was -0.126.
The E-score of `GCAACCCA` is reported as 0.0175.
`AGAATGTA` gave an E-score of -0.0712.
`ACACCCTG` gave an E-score of 0.132.

Series 4
Target: RNA binding protein fox-1 homolog 2, RRM domain, GST-SBP tag (RBFOX2, Homo sapiens, UniProt O43251-10, residues 100-194)
Technique: RNA Bind-n-Seq
Form: RNA
Matrix: in vitro
Tested at: 365 nM
Setting: natural RNA segment, single round, ends assumed
Relative to: no-protein control
Direction: higher = stronger binding
Residues (chain): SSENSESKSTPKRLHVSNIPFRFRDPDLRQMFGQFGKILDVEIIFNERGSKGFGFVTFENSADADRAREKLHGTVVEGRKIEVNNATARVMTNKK
Under “RBNS enrichment (R)”, `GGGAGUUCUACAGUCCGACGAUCUGAGCUCAGCGGGCCCCACCAUCUGCAUCCCUACCUUUGGAGACGAUACCCUCACCAGAUUUCUCAGCAGGGGUGGCCUAGGCCUGGAGCCCUCAGCCAGGGCCGUGGUGUGGAAUUCUCGGGUGCCAA` is recorded as 0.383.
For `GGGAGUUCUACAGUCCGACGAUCUUUACACACCGUGAAUCCAUUCCCAUCAGUCCAUUCCAGUUGGCACCAGCCUGAACCAUUUGGUACCUGGUGUUAACUGGAGUCCUGUUUACAAGGUGGAGUCGGGGCUUUGGAAUUCUCGGGUGCCAA`, “RBNS enrichment (R)” read 0.188.
Under “RBNS enrichment (R)”, `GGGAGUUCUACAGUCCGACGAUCUCCAUGUGUGUGCGAGCACGCGUGUCUGUGUCUGUGUGUGCAUACUUCUGUGACUUUAGACAUGCUUUCUUGUAGUGCUUCUGCAAAGGGACUUUUUUUGAAUCCUCAGUUGGAAUUCUCGGGUGCCAA` is recorded as 0.48.
For `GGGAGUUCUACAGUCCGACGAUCAAGUUUCUGGCAUUAGCAGAUGAUUUCUGUUCACCUGGUAAGAAAAGAAUGAUAGGCUUGUCAGAGCCUAUAGCCAGAACUCAGAAAAAAUUCAAAUGCACUUAUGUUCUUGGAAUUCUCGGGUGCCAA`, “RBNS enrichment (R)” read 1.31.
For `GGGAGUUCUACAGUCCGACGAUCAGAACACUUCAGUAGCUAGCCCGUCUGGUUGAUUGUGCAUGGAACUGACAUGUUAACACCUGAUCACUCCCCCAGGCCCUUUUCCUGCCCCAUCCCUCCUAGGAAGAGAGUGGAAUUCUCGGGUGCCAA`, “RBNS enrichment (R)” read 1.9.
Under “RBNS enrichment (R)”, `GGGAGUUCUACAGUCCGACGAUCGAAGGAUGAAGGGCCCGAGAACAUGGCCUAAGGGCCACAUCCCACUGCCACCCUUGACGCCCUGCUCUGGAUAACAAGACUUUGACUUGGGGAGACCUCUACUGCCUUGGUGGAAUUCUCGGGUGCCAA` is recorded as 0.345.
For `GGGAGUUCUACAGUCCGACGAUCAAAAUACUGAACAUAGCUGUAUAGGUUUGUGAUUAUUAGAGAAUAUGUUAAUAAAACUUCUUGUAACGGCUAACUGCCACCUAAAAUAUGCUGGGUUUUCUGUUGUUUGAUGGAAUUCUCGGGUGCCAA`, “RBNS enrichment (R)” read 0.434.
For `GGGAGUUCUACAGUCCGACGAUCUCCCACUCCUUCGUUUUUCCUCUCAAAUCUCCUUGGUGACCUCAUUGACUGGGAGCAUGGCCAGGCAUCUCCAGGUUCUAAGCUUUGGGAAGCUACACUUCCAAGUUGCUUGGAAUUCUCGGGUGCCAA`, “RBNS enrichment (R)” read 0.918.

Further values, each from its own experiment
`PhoQ, residues 284 288 289 292 302 303 NSMLDC` gave a fold induction of 20.3 (PhoP, residues 12 14 15 18 19 TQAIL (Escherichia coli, UniProt P23836); Sort-seq, measured: YFP reporter; E. coli; PhoQ-PhoP variant library, with: 10 µM Mg2+; relative to: high Mg2+ state, higher = stronger signaling).

Excerpt of the above (series 3):
For `ATGGACAA`, the E-score was 0.0365.
The E-score of `CGATTTTA` is reported as -0.0744.
For `GAGCCTGA`, the E-score was 0.0417.
The E-score of `GTACTTAA` is reported as -0.0931.
For `CAGAAATA`, the E-score was -0.126.
The E-score of `GCAACCCA` is reported as 0.0175.
`AGAATGTA` gave an E-score of -0.0712.
